{"data": "Experimental data from different studies", "AKR1C1": "Aldo-keto reductase family 1 member C1 (AKR1C1, Homo sapiens, UniProt Q04828)", "Epha4 ectodomain": "Ephrin type-A receptor 4, ectodomain (Epha4, Mus musculus, UniProt Q03137)", "PPO3": "PPO3 (Agaricus bisporus, UniProt C7FF04)", "SIRT1": "NAD-dependent protein deacetylase sirtuin-1 (SIRT1, Homo sapiens, UniProt Q96EB6)", "IDO1": "Indoleamine 2,3-dioxygenase 1 (IDO1, Homo sapiens, UniProt P14902)", "SETD7": "Histone-lysine N-methyltransferase SETD7 (SETD7, Homo sapiens, UniProt Q8WTS6)", "TRPV1": "Transient receptor potential cation channel subfamily V member 1 (TRPV1, Homo sapiens, UniProt Q8NER1)", "note": "Lines come from different studies, so protocols differ. ± gives the spread as reported.", "UniProt C7FF04, sequence (whole entry, looked up)": "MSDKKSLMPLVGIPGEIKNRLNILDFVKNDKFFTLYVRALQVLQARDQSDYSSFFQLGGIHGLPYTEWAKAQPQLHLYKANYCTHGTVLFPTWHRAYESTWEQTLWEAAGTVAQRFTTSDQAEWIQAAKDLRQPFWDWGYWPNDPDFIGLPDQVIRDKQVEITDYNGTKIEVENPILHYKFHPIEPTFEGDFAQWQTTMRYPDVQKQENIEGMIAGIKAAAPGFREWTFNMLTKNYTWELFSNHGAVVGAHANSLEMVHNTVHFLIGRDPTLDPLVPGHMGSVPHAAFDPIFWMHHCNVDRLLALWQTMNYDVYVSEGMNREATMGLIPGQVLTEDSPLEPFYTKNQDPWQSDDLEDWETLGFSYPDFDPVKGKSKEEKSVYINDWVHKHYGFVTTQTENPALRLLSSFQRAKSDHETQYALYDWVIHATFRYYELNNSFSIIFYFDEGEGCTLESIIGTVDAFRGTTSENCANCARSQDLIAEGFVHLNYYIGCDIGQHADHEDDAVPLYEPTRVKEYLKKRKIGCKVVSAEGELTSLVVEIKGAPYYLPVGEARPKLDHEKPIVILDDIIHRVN", "UniProt P14902, sequence (whole entry, looked up)": "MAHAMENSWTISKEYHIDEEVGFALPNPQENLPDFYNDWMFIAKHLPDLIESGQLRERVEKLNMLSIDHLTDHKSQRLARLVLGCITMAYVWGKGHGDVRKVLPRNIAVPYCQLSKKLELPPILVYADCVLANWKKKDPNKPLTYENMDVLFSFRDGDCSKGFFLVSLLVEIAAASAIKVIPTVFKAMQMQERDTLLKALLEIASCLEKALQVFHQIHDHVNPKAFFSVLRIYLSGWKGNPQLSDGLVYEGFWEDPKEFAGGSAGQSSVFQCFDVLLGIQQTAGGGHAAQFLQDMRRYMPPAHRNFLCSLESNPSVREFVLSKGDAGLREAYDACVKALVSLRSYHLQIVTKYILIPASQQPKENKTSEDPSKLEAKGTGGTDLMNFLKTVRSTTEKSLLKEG", "UniProt Q04828, sequence (whole entry, looked up)": "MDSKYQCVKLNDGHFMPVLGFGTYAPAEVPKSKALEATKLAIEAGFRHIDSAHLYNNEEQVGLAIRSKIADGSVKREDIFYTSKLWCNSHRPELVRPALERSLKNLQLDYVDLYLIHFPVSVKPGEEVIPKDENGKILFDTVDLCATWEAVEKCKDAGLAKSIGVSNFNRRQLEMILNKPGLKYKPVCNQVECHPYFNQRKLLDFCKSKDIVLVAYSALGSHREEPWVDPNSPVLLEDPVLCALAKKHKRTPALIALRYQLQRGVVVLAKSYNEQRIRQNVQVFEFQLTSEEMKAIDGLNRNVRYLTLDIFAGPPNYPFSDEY", "UniProt Q03137, sequence (whole entry, looked up)": "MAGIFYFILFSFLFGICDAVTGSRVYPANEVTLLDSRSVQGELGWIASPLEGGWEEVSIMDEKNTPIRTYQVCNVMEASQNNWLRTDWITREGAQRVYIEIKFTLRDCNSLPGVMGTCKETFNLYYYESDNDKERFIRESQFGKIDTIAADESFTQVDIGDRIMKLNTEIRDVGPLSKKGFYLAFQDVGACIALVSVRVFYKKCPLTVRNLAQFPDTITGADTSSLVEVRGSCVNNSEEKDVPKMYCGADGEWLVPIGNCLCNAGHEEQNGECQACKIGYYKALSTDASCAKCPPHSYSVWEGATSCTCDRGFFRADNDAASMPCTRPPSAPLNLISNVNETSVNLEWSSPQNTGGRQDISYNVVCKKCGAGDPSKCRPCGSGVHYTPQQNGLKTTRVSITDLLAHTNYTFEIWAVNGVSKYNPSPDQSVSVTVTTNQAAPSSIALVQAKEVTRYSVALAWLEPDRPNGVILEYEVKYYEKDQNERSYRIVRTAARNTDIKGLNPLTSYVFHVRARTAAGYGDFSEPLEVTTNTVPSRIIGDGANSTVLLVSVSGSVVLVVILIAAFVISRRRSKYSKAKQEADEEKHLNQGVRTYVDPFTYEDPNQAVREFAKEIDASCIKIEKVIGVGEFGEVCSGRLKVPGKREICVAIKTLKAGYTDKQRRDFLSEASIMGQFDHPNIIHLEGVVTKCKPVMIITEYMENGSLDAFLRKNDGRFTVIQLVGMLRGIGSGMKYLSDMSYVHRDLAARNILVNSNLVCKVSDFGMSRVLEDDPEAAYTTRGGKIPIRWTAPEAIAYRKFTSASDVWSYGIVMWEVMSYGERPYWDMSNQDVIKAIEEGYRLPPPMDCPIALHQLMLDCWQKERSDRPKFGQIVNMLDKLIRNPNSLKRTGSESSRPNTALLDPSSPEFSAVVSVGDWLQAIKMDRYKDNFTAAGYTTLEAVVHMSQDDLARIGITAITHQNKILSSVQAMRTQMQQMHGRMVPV", "UniProt Q8WTS6, sequence (whole entry, looked up)": "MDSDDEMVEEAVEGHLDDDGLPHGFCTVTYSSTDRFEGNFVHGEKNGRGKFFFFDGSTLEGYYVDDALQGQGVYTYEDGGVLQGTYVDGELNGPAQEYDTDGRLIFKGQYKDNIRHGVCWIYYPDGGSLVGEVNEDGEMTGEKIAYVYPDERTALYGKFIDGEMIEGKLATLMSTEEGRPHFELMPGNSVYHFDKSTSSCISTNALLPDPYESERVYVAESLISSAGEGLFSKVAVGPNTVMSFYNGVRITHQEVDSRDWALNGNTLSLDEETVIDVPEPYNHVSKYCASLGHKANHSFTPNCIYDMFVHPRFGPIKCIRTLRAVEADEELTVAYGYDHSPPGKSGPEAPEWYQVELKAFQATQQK", "UniProt Q96EB6, sequence (whole entry, looked up)": "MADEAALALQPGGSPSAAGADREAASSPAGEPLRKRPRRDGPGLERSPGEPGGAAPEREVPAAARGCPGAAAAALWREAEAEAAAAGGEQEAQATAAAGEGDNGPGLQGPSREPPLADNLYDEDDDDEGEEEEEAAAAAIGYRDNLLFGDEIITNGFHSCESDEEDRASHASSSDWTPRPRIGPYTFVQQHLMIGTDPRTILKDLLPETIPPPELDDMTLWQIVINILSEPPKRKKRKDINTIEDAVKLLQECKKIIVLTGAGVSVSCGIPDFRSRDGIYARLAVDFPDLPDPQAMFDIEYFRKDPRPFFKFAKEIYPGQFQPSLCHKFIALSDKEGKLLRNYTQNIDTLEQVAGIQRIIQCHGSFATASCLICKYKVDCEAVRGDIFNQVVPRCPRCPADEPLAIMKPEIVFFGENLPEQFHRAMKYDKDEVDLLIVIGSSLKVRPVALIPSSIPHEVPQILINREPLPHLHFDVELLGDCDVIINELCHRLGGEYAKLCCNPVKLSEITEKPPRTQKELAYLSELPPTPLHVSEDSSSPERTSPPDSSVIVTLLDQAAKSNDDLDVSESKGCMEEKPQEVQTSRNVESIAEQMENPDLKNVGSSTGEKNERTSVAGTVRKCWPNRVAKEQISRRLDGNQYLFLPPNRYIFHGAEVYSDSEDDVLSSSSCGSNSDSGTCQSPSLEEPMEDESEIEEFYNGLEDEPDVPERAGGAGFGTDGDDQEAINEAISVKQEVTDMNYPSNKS", "UniProt Q8NER1, sequence (whole entry, looked up)": "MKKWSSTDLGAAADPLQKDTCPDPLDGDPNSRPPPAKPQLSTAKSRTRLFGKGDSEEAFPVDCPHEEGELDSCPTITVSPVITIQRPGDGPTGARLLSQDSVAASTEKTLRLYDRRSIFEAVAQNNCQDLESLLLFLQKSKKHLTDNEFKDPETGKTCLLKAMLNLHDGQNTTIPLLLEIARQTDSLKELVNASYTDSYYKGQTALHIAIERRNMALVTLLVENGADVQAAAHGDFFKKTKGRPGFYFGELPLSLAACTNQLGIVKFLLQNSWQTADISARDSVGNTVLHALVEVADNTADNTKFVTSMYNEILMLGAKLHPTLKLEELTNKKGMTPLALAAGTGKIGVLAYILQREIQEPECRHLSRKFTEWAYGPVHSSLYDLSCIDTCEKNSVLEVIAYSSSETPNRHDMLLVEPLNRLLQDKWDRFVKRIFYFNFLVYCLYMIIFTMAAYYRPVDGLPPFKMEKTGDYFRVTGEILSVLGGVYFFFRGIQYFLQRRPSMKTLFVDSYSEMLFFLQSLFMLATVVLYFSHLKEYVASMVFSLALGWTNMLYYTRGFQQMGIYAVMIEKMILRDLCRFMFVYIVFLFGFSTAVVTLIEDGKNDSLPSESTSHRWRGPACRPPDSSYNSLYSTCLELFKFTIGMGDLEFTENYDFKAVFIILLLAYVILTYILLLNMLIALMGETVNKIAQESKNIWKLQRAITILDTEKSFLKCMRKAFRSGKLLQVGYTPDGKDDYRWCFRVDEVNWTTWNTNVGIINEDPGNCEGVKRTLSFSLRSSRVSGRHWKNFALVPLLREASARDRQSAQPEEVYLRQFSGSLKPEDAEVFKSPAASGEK", "UniProt Q01959, sequence (whole entry, looked up)": "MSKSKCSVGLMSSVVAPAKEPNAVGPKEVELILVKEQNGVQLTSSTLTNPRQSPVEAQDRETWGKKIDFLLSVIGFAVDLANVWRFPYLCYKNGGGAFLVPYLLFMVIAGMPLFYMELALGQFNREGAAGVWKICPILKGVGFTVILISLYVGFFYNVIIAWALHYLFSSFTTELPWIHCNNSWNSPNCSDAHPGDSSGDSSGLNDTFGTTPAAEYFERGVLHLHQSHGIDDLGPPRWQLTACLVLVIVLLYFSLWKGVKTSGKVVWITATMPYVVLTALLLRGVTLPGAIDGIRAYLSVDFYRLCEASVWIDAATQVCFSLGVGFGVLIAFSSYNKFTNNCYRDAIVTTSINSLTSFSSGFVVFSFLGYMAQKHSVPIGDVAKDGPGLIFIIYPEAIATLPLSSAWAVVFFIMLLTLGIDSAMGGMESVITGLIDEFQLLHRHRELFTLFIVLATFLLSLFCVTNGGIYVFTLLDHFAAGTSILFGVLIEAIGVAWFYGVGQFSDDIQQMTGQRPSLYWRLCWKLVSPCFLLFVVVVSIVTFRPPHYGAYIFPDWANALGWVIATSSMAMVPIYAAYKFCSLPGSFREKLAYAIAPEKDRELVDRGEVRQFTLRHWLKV"}
{"Compound": "NS(=O)(=O)c1ccc(N2N=C(c3ccccc3O)CC2c2ccc(Br)cc2)cc1 (stereo not drawn)", "target": "Carbonic anhydrase 9 (CA9, Homo sapiens, UniProt Q16790)", "test": "enzyme activity, inhibitor", "setting": "1 mM", "inhibition": "40%"}
{"Compound": "C[C@]12CCC[C@H]1[C@@H]1CCc3cc(O)ccc3[C@H]1CC2", "target": "AKR1C1", "test": "enzyme activity, inhibitor, absorbance", "setting": "10 µM, pH 9", "inhibition": "13.8%"}
{"Compound": "NCCC(=O)N[C@@H](Cc1c[nH]c2ccccc12)C(=O)N[C@@H](Cc1ccc(Cl)cc1)C(N)=O", "target": "Epha4 ectodomain", "test": "ephrin-A5 binding, antagonist, ELISA", "setting": "500 µM, with: ephrin-A5-AP", "inhibition": "45%"}
{"Compound": "COc1ccc(C2CC(c3ccc(C)cc3)=Nc3ccccc3S2)cc1 (stereo not drawn)", "target": "PPO3", "test": "enzyme activity, inhibitor", "setting": "25 µg/mL", "inhibition": "23%"}
{"Compound": "Cc1cc(NC(=O)[C@H](O)c2cc(F)cc(F)c2)ccc1-c1cnc(N)c(C(=O)NC(C)C)c1", "target": "Proto-oncogene tyrosine-protein kinase receptor Ret (RET, Homo sapiens, UniProt P07949, M918T)", "test": "cell-free assay, competition with immobilised ligand", "setting": "1 µM", "inhibition": "> 50%"}
{"Compound": "COc1ccc2c(c1I)CC[C@@H]1[C@@H]2CC[C@@]2(C)C(=O)CC[C@@H]12", "target": "AKR1C1", "test": "enzyme activity, inhibitor, absorbance", "setting": "10 µM, pH 9", "inhibition": "5.1%"}
{"Compound": "COc1cc(C(=O)NC2CCC(N3CCN(CC4CCC5(CCCC5)C4)CC3)CC2)c(F)cc1Nc1ncc2c(n1)N(C1CCCC1(F)F)CC(F)(F)C(=O)N2C (stereo not drawn)", "target": "Proto-oncogene tyrosine-protein kinase ROS (ROS1, Homo sapiens, UniProt P08922)", "test": "cell-free assay, TR-FRET", "setting": "10 µM", "inhibition": "0.66%"}
{"Compound": "C[C@]12CC[C@@H]3c4ccc(O)c(Br)c4CC[C@H]3[C@@H]1CCC2=O", "target": "AKR1C1", "test": "enzyme activity, inhibitor, absorbance", "setting": "100 µM, pH 9", "inhibition": "100%"}
{"Compound": "C[C@H](NC(=O)CNC(=O)[C@@H]1CSSC[C@H](NC(=O)[C@H](C)NC(=O)CN)C(=O)N[C@@H](CCCNC(=N)N)C(=O)N[C@@H](CCCNC(=N)N)C(=O)N[C@@H](CCC(=O)O)C(=O)N[C@@H]([C@@H](C)O)C(=O)N[C@@H](C)C(=O)N[C@@H](Cc2c[nH]c3ccccc23)C(=O)N[C@@H](C)C(=O)N1)C(=O)O", "target": "Integrin alpha-5/beta-1 (Homo sapiens, UniProt P05556+P08648)", "test": "phage binding", "setting": "concentration not given, with: CRGDC-displaying phage", "inhibition": "inhibited"}
{"Compound": "NC(=O)C1CCCc2c1[nH]c1ccc(Cl)cc21 (stereo not drawn)", "target": "SIRT1", "test system": "HepG2", "setting": "10 µM, 6 h", "inhibition": "33%"}
{"Compound": "COc1cc(F)c(C(C)C)cc1C1=C(CN2C(=O)O[C@H](c3cc(C(F)(F)F)cc(C(F)(F)F)c3)[C@@H]2C)CC(C)(C)CC1", "target": "Cholesteryl ester transfer protein (Homo sapiens, UniProt P11597)", "test": "plasma enzyme activity, inhibitor", "test system": "healthy male human, plasma", "setting": "oral, 400 mg single dose, 24 h post-dose", "inhibition": "43%"}
{"Compound": "O=C(O)CN1C(=O)/C(=C/c2c[nH]nc2-c2ccc([N+](=O)[O-])cc2)SC1=S", "target": "SIRT1", "test": "enzyme activity, inhibitor, fluorescence", "setting": "10 µM", "inhibition": "< 30%"}
{"Compound": "C[C@@]12CC[C@@H]3c4cc(Br)c(O)cc4CC[C@H]3[C@@H]1CCC2=O", "target": "AKR1C1", "test": "enzyme activity, inhibitor, absorbance", "setting": "100 µM, pH 9", "inhibition": "22.5%"}
{"Compound": "CN1CCN(CCCNC(=O)c2cc3c(-c4ccc(Cl)cc4)nn(C)c3s2)CC1", "target": "DNA repair protein RAD51 homolog 1 (RAD51, Homo sapiens, UniProt Q06609)", "test": "D-loop formation", "setting": "10 x IC50, with: Ca2+ 1 mM", "how to read": "baseline: DMSO", "inhibition": "> 2 fold"}
{"Compound": "CCCCCCOc1ccc(C2CC(c3ccc(C)cc3)=Nc3ccccc3S2)cc1OC (stereo not drawn)", "target": "PPO3", "test": "enzyme activity, inhibitor", "setting": "25 µg/mL", "inhibition": "19%"}
{"Compound": "C[C@]12CC[C@@H]3c4cc(I)c(O)cc4CC[C@H]3[C@@H]1CCC2=O", "target": "AKR1C1", "test": "enzyme activity, inhibitor, absorbance", "setting": "100 µM, pH 9", "inhibition": "22.5%"}
{"Compound": "NCCC(=O)N[C@@H](Cc1c[nH]c2ccc(O)cc12)C(=O)N[C@@H](Cc1ccc(Cl)cc1)C(=O)N[C@@H](Cc1ccncc1)C(N)=O", "target": "Epha4 ectodomain", "test": "ephrin-A5 binding, antagonist, ELISA", "setting": "500 µM, with: ephrin-A5-AP", "inhibition": "~90%"}
{"Compound": "C[C@@H](N)C1CCN(S(=O)(=O)c2cccc3c(=O)[nH]ccc23)CC1", "target": "Serine/threonine-protein kinase D2 (PRKD2, Homo sapiens, UniProt Q9BZL6)", "test": "cell-free assay, competition with immobilised ligand", "setting": "10 µM", "inhibition": "> 95%"}
{"Compound": "O=C(OC(C(F)(F)F)C(F)(F)F)N1CCC(Cn2ccc3cc(F)ccc32)CC1", "target": "Fatty-acid amide hydrolase 1 (Faah, Rattus norvegicus, UniProt P97612)", "setting": "10 µM", "inhibition": "inactive"}
{"Compound": "O=C1c2c(O)cccc2[C@@H]([C@@H]2O[C@H](CO)[C@@H](O)[C@H](O)[C@H]2O)c2cc(CO)cc(O)c21", "target": "IDO1", "test": "kynurenine formation", "setting": "100 µM", "inhibition": "66.8 ± 0.82%"}
{"Compound": "CC1=C(/C=C/C(C)=C/C=O)C(C)(C)CCC1", "target": "Cyclic nucleotide-gated channel alpha-1 (CNGA1, Bos taurus, UniProt Q00194)", "test": "cGMP-activated current, inside-out patch clamp", "test system": "Xenopus oocytes", "setting": "concentration not given, with: cGMP 2 mM", "inhibition": "no inhibition"}
{"Compound": "C[C@]12CC[C@@H]3c4cc(Br)c(O)c(Br)c4CC[C@H]3[C@@H]1CCC2=O", "target": "AKR1C1", "test": "enzyme activity, inhibitor, absorbance", "setting": "10 µM, pH 9", "inhibition": "67%"}
{"Compound": "COc1cc(C)c2c(=O)cc(C[C@@H](C)O)oc2c1[C@@H]1O[C@H](CO)[C@@H](O)[C@H](O)[C@H]1OC(=O)/C=C/c1ccc(O)cc1", "target": "IDO1", "test": "kynurenine formation", "setting": "100 µM", "inhibition": "49.32 ± 0.27%"}
{"Compound": "CNC(=O)c1ccccc1Oc1nc(Nc2cc(OC)c(OC)c(OC)c2)ncc1Br", "target": "MAP/microtubule affinity-regulating kinase 3 (MARK3, Homo sapiens, UniProt P27448)", "test": "enzyme activity, inhibitor", "setting": "1 µM", "inhibition": "30 to 50%"}
{"Compound": "Cc1ccc(C2=Nc3ccccc3SC(c3ccc(F)cc3)C2)cc1 (stereo not drawn)", "target": "PPO3", "test": "enzyme activity, inhibitor", "setting": "25 µg/mL", "inhibition": "76%"}
{"Compound": "OB(O)c1cnn(-c2cc(Cl)ncn2)c1", "target": "Proteasome Macropain subunit PRE2 (PRE2, Saccharomyces cerevisiae S288c, UniProt P30656)", "test": "20S proteasome activity", "setting": "100 µM, with: Suc-LLVY-AMC", "inhibition": "≤ 20%"}
{"Compound": "CCCC[C@H](NC(C)=O)C(=O)N1CCC[C@H]1C(=O)N[C@@H](CO)C(=O)N[C@@H](CO)C(=O)N[C@@H](C)C(=O)N[C@@H](CO)C(=O)N[C@@H](CCCNC(=N)N)C(=O)N[C@@H](CCC(N)=O)C(=O)N[C@@H](CC(C)C)C(=O)N[C@@H](CC(C)C)C(=O)N[C@@H](CCCNC(=N)N)C(=O)N[C@@H](CCCCN)C(=O)N[C@@H](CCC(N)=O)C(=O)N[C@@]1(C)CCCC=CCCC[C@@](C)(C(N)=O)NC(=O)[C@H]([C@@H](C)CC)NC(=O)[C@H](CCC(=O)O)NC(=O)[C@H](CCCCN)NC1=O", "target": "Ubiquitin-like modifier-activating enzyme 1 (UBA1, Homo sapiens, UniProt P22314)", "test": "ubiquitin thioester transfer to UBE2D2, inhibitor", "setting": "concentration not given, staple-scanning screen", "inhibition": "inactive"}
{"Compound": "C[C@]12CC[C@@H]3c4ccc(O)c(I)c4CC[C@H]3[C@@H]1CCC2=O", "target": "AKR1C1", "test": "enzyme activity, inhibitor, absorbance", "setting": "10 µM, pH 9", "inhibition": "8.3%"}
{"Compound": "NC(=O)c1ccc(C(=O)NOCc2ccc(Sc3cccc(Cl)c3)c(C(F)(F)F)c2)cc1", "target": "NAD-dependent protein deacetylase sirtuin-3, mitochondrial (SIRT3, Homo sapiens, UniProt Q9NTG7)", "test": "cell-free assay, inhibitor", "setting": "100 µM", "inhibition": "17.9%"}
{"Compound": "Oc1c(C(Nc2nc3ccccc3s2)c2cccc(OCc3ccccc3)c2)ccc2cccnc12 (stereo not drawn)", "target": "Genome polyprotein, NS2B-NS3 protease (Dengue virus type 2, UniProt P14340)", "test": "enzyme activity, inhibitor, fluorogenic", "setting": "25 µM, 0.1% CHAPS, with: Bz-Nle-Lys-Arg-Arg-AMC substrate", "inhibition": "96.4 ± 1.32%"}
{"Compound": "C[C@]12CC[C@@H]3c4ccc(O)cc4CC[C@H]3[C@@H]1CCC2=O", "target": "AKR1C1", "test": "enzyme activity, inhibitor, absorbance", "setting": "100 µM, pH 9", "inhibition": "10%"}
{"Compound": "CCC[C@@H]1NC(=O)[C@H]([C@@H](C)O)NC(=O)[C@H](CCCNC(=N)N)NC(=O)CNC(=O)CC[C@@H](C(=O)N[C@@H](C)C(=O)N[C@@H](CCCNC(=N)N)C(=O)N[C@@H](CCCCN)C(=O)N[C@@H](CO)C(=O)N[C@H](C(=O)NCC(=O)NCC(N)=O)[C@@H](C)O)NC(=O)[C@H](CCC(N)=O)NC1=O", "target": "SETD7", "test": "enzyme activity, inhibitor, MALDI-TOF MS", "setting": "50 µM, 10 min preincubation, 30 min, pH 8, 37 °C, enzyme 500 nM, with: H3 1-21 peptide, SAM 30 µM", "inhibition": "~47%"}
{"Compound": "O=C1CSC(c2cccc(Br)c2)N1c1cc(Cl)ccc1O (stereo not drawn)", "target": "act2/arp2 (Schizosaccharomyces pombe, UniProt P32390+Q9UUJ1)", "test": "actin polymerization, pyrenyl-actin", "setting": "concentration not given", "inhibition": "no inhibition"}
{"Compound": "CC(C)c1ccc2nc3ccc(C(=O)NCCN4CCN(c5ccccc5)CC4)cn3c(=O)c2c1", "target": "TRPV1", "test": "calcium influx, antagonist", "test system": "HeLa transfected", "setting": "1 µM, with: capsaicin 5 µM", "inhibition": "inhibited"}
{"Compound": "COc1ncnc(C2CC2)c1-c1ncc2c(n1)n(Cc1ccc(-c3nc(C(F)(F)F)cn3C)cc1)c(=N)n2CC(F)(F)F", "target": "Serine/threonine-protein kinase ULK3 (ULK3, Homo sapiens, UniProt Q6PHR2)", "test": "cell-free assay, competition with immobilised ligand", "setting": "10 µM", "inhibition": "89%"}
{"Compound": "O=C(Cn1cc(C2CC(c3ccccc3)=NN2)nn1)Nc1nc(-c2ccccc2)cs1 (stereo not drawn)", "target": "Matrix metalloproteinase-9 (MMP9, Homo sapiens, UniProt P14780)", "test": "enzyme activity, inhibitor", "setting": "0.5 µM", "inhibition": "82.3%"}
{"Compound": "CC[C@H](C)[C@H](NC(=O)[C@H](CCCNC(=N)N)NC(=O)[C@H](CCCCN)NC(=O)[C@@H]1CCCN1C(=O)[C@@H]1CCCN1CCCN(CC[C@H](N)C(=O)O)C[C@H]1O[C@@H](n2cnc3c(N)ncnc32)[C@H](O)[C@@H]1O)C(=O)N[C@@H](C)C(N)=O", "target": "SETD7", "test": "enzyme activity, inhibitor", "setting": "100 µM", "inhibition": "< 30%"}
{"Compound": "COc1cc(-c2c(C)cc(O)cc2O)oc(=O)c1", "target": "IDO1", "test": "kynurenine formation", "setting": "100 µM", "inhibition": "6.36 ± 4.72%"}
{"Compound": "N[C@H]1CCCc2c1[nH]c1ccc(Cl)cc21", "target": "Sodium-dependent dopamine transporter (SLC6A3, Homo sapiens, UniProt Q01959)", "test": "ligand displacement, radioligand", "setting": "10 µM", "inhibition": "54.6%"}
{"Compound": "Cc1ccc2c(c1Br)C(O)(CC(=O)c1ccc3c(c1)OCO3)C(=O)N2 (stereo not drawn)", "target": "UAP1 (Homo sapiens, UniProt Q16222)", "test": "enzyme activity, coupled colorimetric", "setting": "concentration not given", "inhibition": "no inhibition"}
{"Compound": "Cc1cc2c(NC(=O)N[C@@H]3CC(C)(C)Oc4cc(C(F)(F)F)ccc43)c(C)ccc2cn1", "target": "TRPV1", "test": "acid-evoked calcium influx, antagonist", "test system": "HEK293, human", "setting": "11.25 µM, pH 5", "inhibition": "95.4 ± 1.8%"}
{"Compound": "CCCOc1ccc(C2CC(c3ccc(C)cc3)=Nc3ccccc3S2)cc1OC (stereo not drawn)", "target": "PPO3", "test": "enzyme activity, inhibitor", "setting": "25 µg/mL", "inhibition": "38%"}
